Assay results collected from several papers.
Every numbered part comes from another study and shows a few of its results, in no order. Values joined by “and” are separate records of one study, mostly repeats; a detail may differ.
UniProt Q5XXA6, sequence (whole entry, unmodified, looked up): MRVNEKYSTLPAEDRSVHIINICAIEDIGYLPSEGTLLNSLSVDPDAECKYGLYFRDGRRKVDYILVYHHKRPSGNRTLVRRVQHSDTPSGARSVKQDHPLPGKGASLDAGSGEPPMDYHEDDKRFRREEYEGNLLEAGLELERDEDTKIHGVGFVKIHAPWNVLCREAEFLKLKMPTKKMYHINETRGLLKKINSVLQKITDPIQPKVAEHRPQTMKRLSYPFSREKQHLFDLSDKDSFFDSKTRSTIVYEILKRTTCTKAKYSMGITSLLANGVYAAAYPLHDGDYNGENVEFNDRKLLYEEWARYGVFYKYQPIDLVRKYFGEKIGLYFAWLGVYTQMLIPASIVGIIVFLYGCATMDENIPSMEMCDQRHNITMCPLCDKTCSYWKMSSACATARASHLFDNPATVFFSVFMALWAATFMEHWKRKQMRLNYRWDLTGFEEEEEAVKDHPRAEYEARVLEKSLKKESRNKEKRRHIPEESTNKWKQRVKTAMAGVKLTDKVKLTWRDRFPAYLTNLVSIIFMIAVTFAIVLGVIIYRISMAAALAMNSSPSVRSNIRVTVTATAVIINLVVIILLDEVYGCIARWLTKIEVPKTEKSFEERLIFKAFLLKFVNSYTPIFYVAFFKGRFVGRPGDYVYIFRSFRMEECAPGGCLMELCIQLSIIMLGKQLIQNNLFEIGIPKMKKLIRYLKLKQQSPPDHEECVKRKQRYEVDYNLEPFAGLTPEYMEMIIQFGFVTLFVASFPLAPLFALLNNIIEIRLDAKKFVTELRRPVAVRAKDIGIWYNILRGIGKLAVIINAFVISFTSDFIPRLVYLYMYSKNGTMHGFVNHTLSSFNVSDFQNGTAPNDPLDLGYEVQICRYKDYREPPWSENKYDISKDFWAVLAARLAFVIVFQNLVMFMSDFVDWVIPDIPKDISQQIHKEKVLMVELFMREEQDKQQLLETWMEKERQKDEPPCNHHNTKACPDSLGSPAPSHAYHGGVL
UniProt Q16816, sequence (whole entry, looked up): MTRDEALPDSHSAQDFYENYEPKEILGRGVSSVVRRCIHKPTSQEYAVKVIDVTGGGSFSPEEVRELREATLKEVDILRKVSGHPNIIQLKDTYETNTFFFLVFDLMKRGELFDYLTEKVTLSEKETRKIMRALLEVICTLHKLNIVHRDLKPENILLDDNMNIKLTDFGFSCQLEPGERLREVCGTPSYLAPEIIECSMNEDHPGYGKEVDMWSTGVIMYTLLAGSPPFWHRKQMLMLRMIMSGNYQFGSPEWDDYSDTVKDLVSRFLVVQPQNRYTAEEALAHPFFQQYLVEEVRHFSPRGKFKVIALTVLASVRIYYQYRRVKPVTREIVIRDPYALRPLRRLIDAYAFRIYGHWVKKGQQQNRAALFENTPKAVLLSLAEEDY
UniProt Q8N5S9, sequence (whole entry, looked up): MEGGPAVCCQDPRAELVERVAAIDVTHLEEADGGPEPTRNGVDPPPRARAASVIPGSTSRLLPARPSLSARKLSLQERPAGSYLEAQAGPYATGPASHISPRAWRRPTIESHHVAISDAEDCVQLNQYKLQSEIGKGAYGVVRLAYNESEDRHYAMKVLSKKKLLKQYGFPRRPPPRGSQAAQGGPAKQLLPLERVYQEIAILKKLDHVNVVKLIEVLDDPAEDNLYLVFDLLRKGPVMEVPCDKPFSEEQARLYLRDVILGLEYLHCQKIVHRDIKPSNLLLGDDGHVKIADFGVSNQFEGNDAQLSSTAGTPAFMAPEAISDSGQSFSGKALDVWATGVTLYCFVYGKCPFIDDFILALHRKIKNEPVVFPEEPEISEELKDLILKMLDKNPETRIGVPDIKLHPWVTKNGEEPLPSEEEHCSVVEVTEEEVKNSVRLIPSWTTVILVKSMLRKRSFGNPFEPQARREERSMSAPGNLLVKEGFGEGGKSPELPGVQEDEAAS
UniProt P45984, sequence (whole entry, looked up): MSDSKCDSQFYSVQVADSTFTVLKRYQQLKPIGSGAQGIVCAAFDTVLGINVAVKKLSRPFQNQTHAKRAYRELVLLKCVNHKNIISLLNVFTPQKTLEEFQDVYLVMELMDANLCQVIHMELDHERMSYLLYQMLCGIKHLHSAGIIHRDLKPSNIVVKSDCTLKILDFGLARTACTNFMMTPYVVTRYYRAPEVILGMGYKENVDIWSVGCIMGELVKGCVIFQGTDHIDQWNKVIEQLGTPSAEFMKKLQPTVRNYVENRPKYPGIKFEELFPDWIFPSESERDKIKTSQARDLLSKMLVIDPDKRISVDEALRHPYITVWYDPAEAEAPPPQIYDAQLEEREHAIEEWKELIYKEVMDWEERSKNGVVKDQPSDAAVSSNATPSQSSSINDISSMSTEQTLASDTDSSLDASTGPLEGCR
UniProt P00519, sequence (whole entry, unmodified, looked up): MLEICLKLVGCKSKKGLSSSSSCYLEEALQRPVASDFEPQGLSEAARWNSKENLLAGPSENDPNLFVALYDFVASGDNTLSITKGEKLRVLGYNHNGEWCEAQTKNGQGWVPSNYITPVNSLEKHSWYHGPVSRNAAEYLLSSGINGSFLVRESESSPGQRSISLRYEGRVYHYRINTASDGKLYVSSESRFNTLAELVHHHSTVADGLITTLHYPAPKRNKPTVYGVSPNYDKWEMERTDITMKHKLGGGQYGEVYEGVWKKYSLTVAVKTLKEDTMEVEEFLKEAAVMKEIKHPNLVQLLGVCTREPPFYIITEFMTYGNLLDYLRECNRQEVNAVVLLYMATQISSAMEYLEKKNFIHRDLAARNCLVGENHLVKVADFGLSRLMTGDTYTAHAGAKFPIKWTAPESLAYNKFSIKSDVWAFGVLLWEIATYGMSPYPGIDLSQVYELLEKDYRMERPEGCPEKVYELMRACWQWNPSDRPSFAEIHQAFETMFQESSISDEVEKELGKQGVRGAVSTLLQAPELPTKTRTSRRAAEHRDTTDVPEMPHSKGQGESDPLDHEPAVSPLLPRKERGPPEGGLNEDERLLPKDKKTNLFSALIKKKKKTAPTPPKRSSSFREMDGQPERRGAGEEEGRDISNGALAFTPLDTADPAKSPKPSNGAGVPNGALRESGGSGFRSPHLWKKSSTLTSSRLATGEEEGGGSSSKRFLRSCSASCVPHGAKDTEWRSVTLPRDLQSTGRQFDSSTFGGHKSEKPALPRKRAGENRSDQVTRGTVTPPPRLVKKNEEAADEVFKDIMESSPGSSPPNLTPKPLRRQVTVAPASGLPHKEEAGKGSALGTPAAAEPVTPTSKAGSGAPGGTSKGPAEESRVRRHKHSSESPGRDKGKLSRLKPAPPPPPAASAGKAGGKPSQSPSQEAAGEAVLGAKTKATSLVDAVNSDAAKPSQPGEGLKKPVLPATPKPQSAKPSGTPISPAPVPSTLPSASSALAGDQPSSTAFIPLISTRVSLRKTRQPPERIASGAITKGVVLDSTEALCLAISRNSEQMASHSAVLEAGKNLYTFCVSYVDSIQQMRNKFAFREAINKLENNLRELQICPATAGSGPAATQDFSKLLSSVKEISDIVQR
UniProt P11802, sequence (whole entry, looked up): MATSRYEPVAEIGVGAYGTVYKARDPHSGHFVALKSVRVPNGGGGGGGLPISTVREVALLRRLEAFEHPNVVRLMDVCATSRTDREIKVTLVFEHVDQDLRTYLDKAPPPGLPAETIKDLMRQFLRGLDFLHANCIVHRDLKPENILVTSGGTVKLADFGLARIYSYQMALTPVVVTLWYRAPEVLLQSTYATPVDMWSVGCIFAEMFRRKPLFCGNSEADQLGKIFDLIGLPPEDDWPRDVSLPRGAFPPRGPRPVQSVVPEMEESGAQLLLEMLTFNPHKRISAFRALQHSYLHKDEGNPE
UniProt Q6PHR2, sequence (whole entry, looked up): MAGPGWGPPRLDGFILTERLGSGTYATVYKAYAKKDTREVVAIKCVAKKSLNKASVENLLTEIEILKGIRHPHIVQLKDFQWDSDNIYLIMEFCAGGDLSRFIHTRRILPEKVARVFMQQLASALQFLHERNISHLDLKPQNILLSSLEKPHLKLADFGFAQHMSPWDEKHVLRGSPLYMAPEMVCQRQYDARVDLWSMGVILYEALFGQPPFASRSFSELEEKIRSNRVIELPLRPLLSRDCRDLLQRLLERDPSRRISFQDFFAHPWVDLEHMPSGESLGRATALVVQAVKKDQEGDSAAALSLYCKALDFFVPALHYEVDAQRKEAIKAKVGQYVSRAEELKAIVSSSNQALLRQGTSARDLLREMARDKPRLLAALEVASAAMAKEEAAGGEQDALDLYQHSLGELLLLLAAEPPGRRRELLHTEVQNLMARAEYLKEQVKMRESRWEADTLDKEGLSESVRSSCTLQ
UniProt P51617, sequence (whole entry, looked up): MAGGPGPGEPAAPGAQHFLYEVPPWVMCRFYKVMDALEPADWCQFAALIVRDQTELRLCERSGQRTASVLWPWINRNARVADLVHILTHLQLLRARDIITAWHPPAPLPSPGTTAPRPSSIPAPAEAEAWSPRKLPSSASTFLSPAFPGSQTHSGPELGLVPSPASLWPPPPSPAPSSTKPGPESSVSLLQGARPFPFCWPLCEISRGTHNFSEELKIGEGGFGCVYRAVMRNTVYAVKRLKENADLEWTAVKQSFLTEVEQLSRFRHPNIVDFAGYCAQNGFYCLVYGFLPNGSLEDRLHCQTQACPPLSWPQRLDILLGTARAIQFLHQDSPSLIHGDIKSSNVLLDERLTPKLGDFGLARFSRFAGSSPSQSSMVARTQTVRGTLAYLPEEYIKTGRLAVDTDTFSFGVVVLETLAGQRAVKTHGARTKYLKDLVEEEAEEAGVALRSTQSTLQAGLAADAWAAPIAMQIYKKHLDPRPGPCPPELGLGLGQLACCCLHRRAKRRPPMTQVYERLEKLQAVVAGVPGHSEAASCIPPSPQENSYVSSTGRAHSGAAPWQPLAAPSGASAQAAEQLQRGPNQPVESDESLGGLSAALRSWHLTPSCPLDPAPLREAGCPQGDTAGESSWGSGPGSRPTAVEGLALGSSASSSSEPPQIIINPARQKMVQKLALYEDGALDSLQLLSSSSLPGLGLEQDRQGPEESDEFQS

Sample 1 — SMILES: C=CCc1ccc(O)c(-c2ccc(O)c(CC=C)c2)c1; read-out: chloride current; technique: whole-cell voltage clamp
target	mode	setting	IC50 [µM]
Anoctamin-1 (ANO1, Homo sapiens, UniProt Q5XXA6, del476-501/F628I)	inhibitor	F602I mutant at 80 mV	9.17
Anoctamin-1 (ANO1, Homo sapiens, UniProt Q5XXA6, del476-501/F627A)	–	membrane voltage -40 mV	5.76
Anoctamin-1 (ANO1, Homo sapiens, UniProt Q5XXA6, del476-501/M544A)	–	membrane voltage 60 mV	3.74
Anoctamin-1 (ANO1, Homo sapiens, UniProt Q5XXA6, del476-501/E650A)	–	membrane voltage 40 mV	3.31

Sample 2 — technique: competition with immobilised ligand; tested at: 1 µM
SMILES: O=C(NS(=O)(=O)c1ccc(NCC2CCOCC2)c([N+](=O)[O-])c1)c1ccc(N2CCN(Cc3ccc(C(F)(F)F)cc3-c3ccc(Cl)cc3)CC2)cc1Oc1cnc2[nH]ccc2c1
target	read-out	remaining binding [%]
Dual specificity protein kinase CLK3 (CLK3, Homo sapiens, UniProt P49761)	cell-free assay	100
Cyclin-dependent kinase 4, with cyclin D1 (CDK4, Homo sapiens, UniProt P11802)	cell-free assay	100
Serine/threonine-protein kinase tousled-like 1 (TLK1, Homo sapiens, UniProt Q9UKI8)	cell-free assay	100
Interleukin-1 receptor-associated kinase 1 (IRAK1, Homo sapiens, UniProt P51617)	cell-free assay	96
Mitogen-activated protein kinase 9 (MAPK9, Homo sapiens, UniProt P45984)	cell-free assay	85
Serine/threonine-protein kinase ULK3 (ULK3, Homo sapiens, UniProt Q6PHR2)	cell-free assay	85
Calcium/calmodulin-dependent protein kinase kinase 1 (CAMKK1, Homo sapiens, UniProt Q8N5S9)	cell-free assay	92
Tyrosine-protein kinase ABL1, phosphorylated (ABL1, Homo sapiens, UniProt P00519, E255K)	binding	91
Non-receptor tyrosine-protein kinase TYK2, JH2 (TYK2, Homo sapiens, UniProt P29597)	cell-free assay	73
Cyclin-dependent kinase 3 (CDK3, Homo sapiens, UniProt Q00526)	cell-free assay	100
Phosphorylase b kinase gamma catalytic chain, skeletal muscle/heart isoform (PHKG1, Homo sapiens, UniProt Q16816)	cell-free assay	100

Sample 3 — organism: Sarcocystis neurona; read-out: parasite activity; tested at: 10 µM; time: 96 h
SMILES	activity class
CN(C)[C@@H]1C(O)=C(C(N)=O)C(=O)[C@@]2(O)C(O)=C3C(=O)c4c(O)cccc4[C@@](C)(O)[C@H]3[C@H](O)[C@@H]12	inactive
C[C@]12C=CC(=O)C=C1CC[C@@H]1[C@@H]2C(=O)C[C@@]2(C)[C@H]1CC[C@]2(O)C(=O)CO	inactive
CC(C)C(=O)Nc1ccc([N+](=O)[O-])c(C(F)(F)F)c1	inactive
CN1CCN(CCCN2c3ccccc3Sc3ccc(C(F)(F)F)cc32)CC1	inactive
CCc1c(C)[nH]c2c1C(=O)C(CN1CCOCC1)CC2 (centres unmarked)	inactive

Sample 4 — host: human; sample: microsomes or S9; tested at: 2 µM; time: 0.5 h
Structure (SMILES)	remaining compound
CCc1cc2c3c([nH]c2cc1S(=O)(=O)NCCCN1CCOCC1)CC(C)(C)CC3=O	42.1%
CCCCOC(=O)c1ccc(NC(=O)c2c(OCC)cc(=O)n3c2CCCC3)cc1	49.8%
CCOc1cc(=O)n2c(c1C(=O)NCc1ccc3c(c1)OCO3)CCCC2	76.8%
CCOc1cc(=O)n2c(c1C(=O)Nc1cccc(C(=O)OC)c1)CCCC2	3.65%
CCn1nc(-c2nnc3n2CC(C)(C)CC3)c2ccccc2c1=O	> 100%

Further values, each from its own experiment
Structure (SMILES)	test	test system	setting	how to read	measurement	value
CC(=O)N[C@@H](Cc1c[nH]c2ccccc12)C(=O)N[C@@H](CCC(=O)C=[N+]=[N-])C(=O)OC(C)C	UPLC-MS/MS	EL4 tumor, C57BL/6 CES1-/- mice, tumor	subcutaneous, 0.3 mg/kg DON equivalent daily, 5 days	higher = more metabolite	ribonate level	1.6e+07 a.u. and 1.24e+07 a.u. and 2.47e+07 a.u. and 2.57e+07 a.u. and 2.79e+07 a.u. and 2.33e+07 a.u.
